Assay results collected from several papers.
Numbered parts are unrelated; each lists some results of a single study.
Sequence of UniProt P08581 (whole entry, looked up): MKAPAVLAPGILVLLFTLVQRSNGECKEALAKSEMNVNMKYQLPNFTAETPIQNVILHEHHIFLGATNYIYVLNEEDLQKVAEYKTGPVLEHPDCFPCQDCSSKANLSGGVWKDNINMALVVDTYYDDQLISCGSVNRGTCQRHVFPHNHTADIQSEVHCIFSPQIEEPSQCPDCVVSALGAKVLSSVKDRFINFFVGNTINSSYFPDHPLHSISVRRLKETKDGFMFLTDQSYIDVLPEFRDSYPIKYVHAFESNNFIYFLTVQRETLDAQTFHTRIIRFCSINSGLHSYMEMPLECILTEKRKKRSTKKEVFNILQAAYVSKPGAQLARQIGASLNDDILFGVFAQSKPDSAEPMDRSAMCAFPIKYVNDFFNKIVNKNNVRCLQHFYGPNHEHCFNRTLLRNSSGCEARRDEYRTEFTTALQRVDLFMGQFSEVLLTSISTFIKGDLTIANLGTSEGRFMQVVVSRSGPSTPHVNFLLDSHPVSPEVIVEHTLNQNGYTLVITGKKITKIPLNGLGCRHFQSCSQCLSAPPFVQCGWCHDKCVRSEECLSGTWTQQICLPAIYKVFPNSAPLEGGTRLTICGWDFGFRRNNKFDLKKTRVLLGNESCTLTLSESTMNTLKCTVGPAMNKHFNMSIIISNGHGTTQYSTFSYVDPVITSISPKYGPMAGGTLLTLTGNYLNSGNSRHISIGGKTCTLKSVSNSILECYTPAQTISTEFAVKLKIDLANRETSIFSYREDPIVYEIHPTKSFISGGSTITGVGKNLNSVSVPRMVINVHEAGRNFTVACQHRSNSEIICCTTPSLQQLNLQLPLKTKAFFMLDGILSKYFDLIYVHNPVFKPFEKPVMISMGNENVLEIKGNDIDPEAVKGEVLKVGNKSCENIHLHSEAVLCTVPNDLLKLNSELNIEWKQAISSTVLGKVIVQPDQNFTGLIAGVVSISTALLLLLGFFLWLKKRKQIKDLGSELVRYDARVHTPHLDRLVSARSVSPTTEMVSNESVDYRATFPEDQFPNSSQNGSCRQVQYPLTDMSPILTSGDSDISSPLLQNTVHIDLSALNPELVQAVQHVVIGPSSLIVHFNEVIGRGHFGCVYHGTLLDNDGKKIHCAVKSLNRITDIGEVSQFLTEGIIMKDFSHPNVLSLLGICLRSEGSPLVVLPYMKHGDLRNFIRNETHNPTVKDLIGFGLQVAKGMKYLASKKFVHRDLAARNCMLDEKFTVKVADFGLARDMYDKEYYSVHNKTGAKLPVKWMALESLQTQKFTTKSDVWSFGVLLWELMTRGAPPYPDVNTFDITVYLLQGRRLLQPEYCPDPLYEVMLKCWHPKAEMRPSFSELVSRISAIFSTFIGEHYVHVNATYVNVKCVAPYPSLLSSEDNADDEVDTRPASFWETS
Sequence of UniProt Q16566 (whole entry, looked up): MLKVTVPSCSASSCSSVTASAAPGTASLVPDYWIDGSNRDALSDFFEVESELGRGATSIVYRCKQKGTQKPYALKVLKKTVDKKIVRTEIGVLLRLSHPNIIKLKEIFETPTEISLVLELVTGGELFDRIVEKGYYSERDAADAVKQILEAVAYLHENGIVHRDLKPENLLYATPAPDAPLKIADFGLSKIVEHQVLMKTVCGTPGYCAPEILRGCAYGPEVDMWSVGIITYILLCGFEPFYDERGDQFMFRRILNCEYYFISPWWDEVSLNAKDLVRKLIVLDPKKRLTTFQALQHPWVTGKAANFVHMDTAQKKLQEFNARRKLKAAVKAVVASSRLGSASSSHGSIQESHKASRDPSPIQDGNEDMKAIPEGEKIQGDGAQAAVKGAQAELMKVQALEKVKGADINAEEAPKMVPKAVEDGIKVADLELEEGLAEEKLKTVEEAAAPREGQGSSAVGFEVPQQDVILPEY
Sequence of UniProt Q02750 (whole entry, looked up): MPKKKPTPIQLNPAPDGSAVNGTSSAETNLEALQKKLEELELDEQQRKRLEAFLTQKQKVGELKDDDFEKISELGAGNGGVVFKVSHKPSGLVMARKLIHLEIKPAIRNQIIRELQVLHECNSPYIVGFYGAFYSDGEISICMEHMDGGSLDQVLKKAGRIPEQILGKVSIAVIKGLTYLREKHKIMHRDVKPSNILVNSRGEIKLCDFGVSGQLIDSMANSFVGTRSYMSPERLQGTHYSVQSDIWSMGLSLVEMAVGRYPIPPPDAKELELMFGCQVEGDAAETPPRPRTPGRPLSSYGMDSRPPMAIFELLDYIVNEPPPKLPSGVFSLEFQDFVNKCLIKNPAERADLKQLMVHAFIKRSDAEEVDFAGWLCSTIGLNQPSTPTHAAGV
Sequence of UniProt P78362 (whole entry, looked up): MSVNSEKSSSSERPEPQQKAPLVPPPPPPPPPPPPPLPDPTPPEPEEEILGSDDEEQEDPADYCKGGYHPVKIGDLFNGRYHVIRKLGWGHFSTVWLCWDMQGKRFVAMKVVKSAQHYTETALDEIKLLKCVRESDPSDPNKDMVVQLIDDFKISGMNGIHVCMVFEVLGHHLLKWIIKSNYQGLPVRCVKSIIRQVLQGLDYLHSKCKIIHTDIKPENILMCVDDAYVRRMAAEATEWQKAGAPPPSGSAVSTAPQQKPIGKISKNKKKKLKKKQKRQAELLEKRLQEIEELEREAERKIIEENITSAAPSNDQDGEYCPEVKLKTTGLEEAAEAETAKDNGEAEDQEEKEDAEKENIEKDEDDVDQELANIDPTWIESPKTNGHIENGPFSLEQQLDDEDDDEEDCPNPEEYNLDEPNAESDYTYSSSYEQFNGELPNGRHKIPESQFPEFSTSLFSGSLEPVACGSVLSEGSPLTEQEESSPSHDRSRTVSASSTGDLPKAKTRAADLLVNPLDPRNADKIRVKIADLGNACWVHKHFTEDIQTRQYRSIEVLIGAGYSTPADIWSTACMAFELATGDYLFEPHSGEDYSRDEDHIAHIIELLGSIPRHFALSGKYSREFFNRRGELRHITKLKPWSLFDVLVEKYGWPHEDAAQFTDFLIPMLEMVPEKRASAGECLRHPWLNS
Sequence of UniProt Q16539 (whole entry, looked up): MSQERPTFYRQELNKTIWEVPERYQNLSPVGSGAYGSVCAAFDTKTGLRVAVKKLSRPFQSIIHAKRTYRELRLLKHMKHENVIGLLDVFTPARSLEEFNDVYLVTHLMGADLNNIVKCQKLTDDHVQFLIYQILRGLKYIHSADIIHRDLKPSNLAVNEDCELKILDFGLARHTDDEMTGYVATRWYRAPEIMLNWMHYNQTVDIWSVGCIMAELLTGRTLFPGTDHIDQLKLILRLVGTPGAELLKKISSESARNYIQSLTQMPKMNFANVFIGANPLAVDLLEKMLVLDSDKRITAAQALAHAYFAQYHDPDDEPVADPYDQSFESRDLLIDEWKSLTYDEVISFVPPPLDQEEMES
Sequence of UniProt O75914 (whole entry, looked up): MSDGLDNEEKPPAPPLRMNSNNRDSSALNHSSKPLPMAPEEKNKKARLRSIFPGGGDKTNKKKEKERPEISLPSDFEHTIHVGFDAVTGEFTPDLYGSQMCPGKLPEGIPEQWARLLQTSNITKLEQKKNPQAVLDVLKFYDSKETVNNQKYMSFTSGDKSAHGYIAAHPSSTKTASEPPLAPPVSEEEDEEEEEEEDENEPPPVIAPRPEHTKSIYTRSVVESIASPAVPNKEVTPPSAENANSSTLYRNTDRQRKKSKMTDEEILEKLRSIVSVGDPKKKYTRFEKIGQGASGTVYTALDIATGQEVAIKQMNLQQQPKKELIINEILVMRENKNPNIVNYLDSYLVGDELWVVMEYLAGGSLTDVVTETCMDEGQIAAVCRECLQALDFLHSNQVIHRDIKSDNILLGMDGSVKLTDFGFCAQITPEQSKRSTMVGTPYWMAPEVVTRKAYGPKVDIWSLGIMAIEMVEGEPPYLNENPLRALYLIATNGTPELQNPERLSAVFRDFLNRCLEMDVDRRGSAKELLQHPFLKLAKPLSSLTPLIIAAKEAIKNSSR
Sequence of UniProt P49761 (whole entry, looked up): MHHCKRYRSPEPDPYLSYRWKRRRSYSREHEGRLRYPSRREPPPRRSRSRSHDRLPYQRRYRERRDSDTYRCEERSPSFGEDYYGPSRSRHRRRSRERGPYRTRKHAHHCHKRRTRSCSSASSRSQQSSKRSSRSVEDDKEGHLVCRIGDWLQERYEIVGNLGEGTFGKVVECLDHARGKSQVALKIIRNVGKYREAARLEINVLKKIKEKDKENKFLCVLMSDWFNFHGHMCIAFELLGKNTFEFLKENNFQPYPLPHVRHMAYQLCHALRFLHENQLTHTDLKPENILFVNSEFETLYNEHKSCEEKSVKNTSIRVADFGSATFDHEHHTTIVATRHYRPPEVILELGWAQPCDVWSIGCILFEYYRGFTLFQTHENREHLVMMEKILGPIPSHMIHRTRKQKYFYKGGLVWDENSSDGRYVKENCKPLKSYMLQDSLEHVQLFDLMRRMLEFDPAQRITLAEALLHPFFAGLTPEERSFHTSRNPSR
Sequence of UniProt P21917 (whole entry, looked up): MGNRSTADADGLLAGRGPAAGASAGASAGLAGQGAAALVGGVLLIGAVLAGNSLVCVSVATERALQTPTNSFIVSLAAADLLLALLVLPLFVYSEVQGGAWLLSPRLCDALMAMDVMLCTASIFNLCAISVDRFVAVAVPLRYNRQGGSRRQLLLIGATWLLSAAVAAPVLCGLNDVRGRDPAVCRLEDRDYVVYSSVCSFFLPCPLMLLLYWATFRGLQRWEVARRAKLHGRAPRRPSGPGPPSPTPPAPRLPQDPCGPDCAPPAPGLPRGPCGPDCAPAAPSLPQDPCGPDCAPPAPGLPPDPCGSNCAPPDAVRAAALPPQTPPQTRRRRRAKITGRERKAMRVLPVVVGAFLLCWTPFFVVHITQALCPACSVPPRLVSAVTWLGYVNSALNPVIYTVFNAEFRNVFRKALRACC
Sequence of UniProt Q99720 (whole entry, looked up): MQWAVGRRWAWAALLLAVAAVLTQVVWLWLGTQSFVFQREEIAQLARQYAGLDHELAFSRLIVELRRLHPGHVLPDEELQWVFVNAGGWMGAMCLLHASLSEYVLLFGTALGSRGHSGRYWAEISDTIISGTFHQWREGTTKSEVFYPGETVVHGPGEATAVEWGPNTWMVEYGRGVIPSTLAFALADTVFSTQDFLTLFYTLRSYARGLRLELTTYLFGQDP

Study 1
Compound: CCC(=O)N[C@H]1CC[C@@H](C(=O)N(C)c2ccc(-c3nc4ccccc4o3)cc2)C1
Read-out: binding
Method: radioligand binding
Concentration: 10 µM
target | inhibition
HTR2B (Homo sapiens, UniProt P41595) | 4.55%
DRD3 (Homo sapiens, UniProt P35462) | 12.1%
SIGMAR1 (Homo sapiens, UniProt Q99720) | 9.78%
DRD4 (Homo sapiens, UniProt P21917) | 11.2%
ADRA2A (Homo sapiens, UniProt P08913) | -10.7%
ADRA1A (Homo sapiens, UniProt P35348) | 22.1%

Study 2
Species: mouse
Medium: microsomes or S9
Concentration: 2 µM
Time: 0.5 h
SMILES | remaining compound
CC(Cc1ccsc1)NC(=O)c1cccc2c1OC(C)C(=O)N2 (centres unmarked) | 2.8%
Cn1cnc(S(=O)(=O)N2CCC(Oc3nccnc3C#N)C2)c1 (centres unmarked) | 90.1%
O=C(Cc1c[nH]c2ccccc12)N1CCc2cc(-c3ccno3)ccc21 | 1.48%
CON(C)C(=O)c1cc(C(C)C)nc2c1c(C)nn2C(C)(C)C | 2.6%
COc1ccc(C)cc1NC(=O)c1cc2c(=O)n3cccc(C)c3nc2n1Cc1ccccc1 | 60.8%

Study 3
SMILES: CC(C)c1nn(-c2c(Cl)cccc2Cl)c2nc(Cc3ccc(OCCO)cc3)[nH]c(=O)c12
Read-out: enzyme activity
Action: inhibitor
Concentration: 0.5 µM
Reference: control
target | remaining activity
PAK3 (Homo sapiens, UniProt O75914) | 94.8%
MARK2 (Homo sapiens, UniProt Q7KZI7) | 88%
PLK3 (Homo sapiens, UniProt Q9H4B4) | 99.1%
CLK3 (Homo sapiens, UniProt P49761) | 91.3%
ROCK1 (Homo sapiens, UniProt Q13464) | 101%
MAPK14 (Homo sapiens, UniProt Q16539) | 96.8%
PNCK (Homo sapiens, UniProt Q6P2M8) | 94.3%
MAP2K1 (Homo sapiens, UniProt Q02750) | 99.7%
MET (Homo sapiens, UniProt P08581) | 91%
CDC42BPB (Homo sapiens, UniProt Q9Y5S2) | 105%
TXK (Homo sapiens, UniProt P42681) | 101%
MARK4 (Homo sapiens, UniProt Q96L34) | 99.5%
CLK4 (Homo sapiens, UniProt Q9HAZ1) | 81.2%
CAMK4 (Homo sapiens, UniProt Q16566) | 102%

Study 4
SMILES: C=CC(=O)N1CCC[C@@H](n2nc(-c3ccc(Oc4ccccc4)cc3)c3c(N)ncnc32)C1
Read-out: enzyme activity
Action: inhibitor
Concentration: 1 µM
target | inhibition [%]
MAP3K15 (Homo sapiens, UniProt Q6ZN16) | 0
LRRK2 (Homo sapiens, UniProt Q5S007) | 11
SRPK2 (Homo sapiens, UniProt P78362) | 7
SRMS (Homo sapiens, UniProt Q9H3Y6) | 100
